# Results gathered from unrelated publications.
# Every numbered part comes from another study and shows a few of its results, in no order. Positions count from the first letter of the parent shown.

# Set 1
# Target: CCNE1, cyclin fold, Cln2 fusion (human)
# Method: yeast growth competition, sequencing
# Sample: yeast
# Setting: weak parent motif
# Reference: not given
# Direction: higher = stronger binding
# Parent: MICAL3 docking peptide (human); LQLRRQLSFSEDS
Change,normalised enrichment score
LQLRRQLSFSVDS [E11V],0.456
LQLRRQLSFSPDS [E11P],0.495
LQLRRQCSFSEDS [L7C],-0.208
LQLRRQLSFSECS [D12C],2.72
LQTRRQLSFSEDS [L3T],4.31
LPLRRQLSFSEDS [Q2P],2.57
LQLRRQLLFSEDS [S8L],0.699
LQPRRQLSFSEDS [L3P],3.39
LQLREQLSFSEDS [R5E],0.151
LKLRRQLSFSEDS [Q2K],0.949
LQLRTQLSFSEDS [R5T],-0.109
LQLCRQLSFSEDS [R4C],0.831
LQLRRWLSFSEDS [Q6W],0.838
LQLRRLLSFSEDS [Q6L],0.599
LQLRRQLSSSEDS [F9S],-0.534
LQLRRALSFSEDS [Q6A],1.11
LQLRRQVSFSEDS [L7V],0.26
LQMRRQLSFSEDS [L3M],1.57
LQLRRQLSFIEDS [S10I],0.0124
LQLRRQLSFHEDS [S10H],0.466

# Set 2
# Target: RNA binding protein fox-1 homolog 2, RRM domain, GST-SBP tag (RBFOX2, Homo sapiens, UniProt O43251-10, residues 100-194)
# Method: RNA Bind-n-Seq
# Molecule type: RNA
# Sample: in vitro
# Concentration: 365 nM
# Setting: natural RNA segment, single round, ends assumed
# Reference: no-protein control
# Direction: higher = stronger binding
# All sequences stand within: GGGAGUUCUACAGUCCGACGAUC … UGGAAUUCUCGGGUGCCAA
# Target sequence (chain): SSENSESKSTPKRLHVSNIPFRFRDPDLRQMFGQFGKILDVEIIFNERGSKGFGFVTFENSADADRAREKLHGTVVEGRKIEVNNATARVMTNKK
Strand,RBNS enrichment (R)
AGCCAAACAAGAAUCAGUUGAUCCCCUUGCACUUUGGACACUUCAAUGGAGCCUGAGCUGCUUAGAAGCCUUGGUUCAGGAUUCCAGCUGGGUUCAUGACUGUGAACACA,0.291
CGGACUCAAACGCCGCUGACUGCCACCCACACGCCCUCCCCAGACUCCACCGUCAGCUGUAACCCUCACCCACAGCCCCUGCUGGGCCCACCACCUGUCCGUCCCUGUCC,0.771
UAGACACCCCCAGAAUGCCUGGCGCUCUGCAGAGCACAGUCUGAGCUGCUCUAAGAAGGGGUCUCCUUUACCCUAAAGGCAGCUGGGCAGGGACAGGUGGGAGAAUGGGU,1.42
CACAUAUAUUAUGCAUGUGGUGAAAAGAAUUGGCUAGAUAGGGGAUUUUUCUGAACACUGCAAAAAUAGAACGUAGCAAAAUGGCUUCAGUUAUCACUUUUGGGUGUCUG,0.847
GGCAGGACCUGUGGAGCCAUUAACGGCGGGGGUCUUAGCGAGAACCACUUCAUUAGAGCACUUGCUGCAGAGGCAGAGAGCAGAGCCGCCAGGAUAAAUUCUGCUUCCAC,0.403
ACAUAUUCUGGUGGCUCCCUGCUGGCCCUCUGCUCACACCUUGAAAGAGCCUUUUCAAAUACAGAUCCAGAAGUCUGAUUUGUGCCAACCUUAGGAUGACCUAAGGGGAG,0.353
AUGGUAUAGCCUACUACACACCUGGGCUGUGUGGCAUGGCCUAUUCCUCUUAGGCUACAAACCUGUACAGCAUGUUACUGUACUGAACACAAUGGUAAGUAUUUGUGUAU,2.72
CAAUGUCUUGAAGUUUUAAGUGUUUUGACCAGUGUGUAAUGUUAAAUUCAGAGGCUACAGUAUAUCUACAUUCAUGUGGUGUUCAUUGGUAAUUUCAGUAUAUGUAAUGU,1.25

# Set 3
# Target: CREB3, bZIP domain (human)
# Method: DHFR protein complementation
# Sample: yeast
# Setting: single substitutions, most at no-binding floor
# Reference: wild-type JUN-FOS pair
# Direction: higher = stronger binding
# Parent: JUN, bZIP domain (human); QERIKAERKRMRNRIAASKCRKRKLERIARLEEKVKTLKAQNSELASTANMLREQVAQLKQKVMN; partner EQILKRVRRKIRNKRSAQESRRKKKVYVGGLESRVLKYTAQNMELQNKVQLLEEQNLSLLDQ
Change,binding fitness
R53H,-1.5 natural log
E44F,-1.38 natural log
K34E,-1.54 natural log
A29P,-1.47 natural log
R53V,-1.52 natural log
E54P,-1.48 natural log
V56C,-1.5 natural log
T48K,-1.3 natural log
T48N,-1.6 natural log
L38C,-1.49 natural log
A46S,-1.32 natural log
K36L,-1.43 natural log
S47D,-1.44 natural log
E33G,-1.43 natural log

# Set 4
# Molecule: PhoQ, residues 284 288 289 292 302 303 ASTSDA
# Method: Sort-seq
# Measured: YFP reporter
# Sample: E. coli
# Setting: PhoQ-PhoP variant library
# Together with: 10 µM Mg2+
# Reference: high Mg2+ state
# Direction: higher = stronger signaling
target,fold induction
"PhoP, residues 12 14 15 18 19 HHYTI (Escherichia coli, UniProt P23836)",2.86
"PhoP, residues 12 14 15 18 19 SFCSL (Escherichia coli, UniProt P23836)",15.9
"PhoP, residues 12 14 15 18 19 AYFRS (Escherichia coli, UniProt P23836)",5.85

# Excerpt of the above (set 3):
Change,binding fitness
A46S,-1.32 natural log
K36L,-1.43 natural log
S47D,-1.44 natural log
E33G,-1.43 natural log
